Assay results gathered from unrelated publications.
Compare with care: the assays were run in different laboratories.
Sigmar1: Sigma non-opioid intracellular receptor 1 (Sigmar1, Rattus norvegicus, UniProt Q9R0C9)
Oprk1: Kappa-type opioid receptor (Oprk1, Rattus norvegicus, UniProt P34975)
Phospholipase D2: Phospholipase D2 (Homo sapiens, UniProt O14939)

With `CCC(=O)c1ccc2c(c1)sc(=O)n2CCCCCCN1CCCCCC1` the selectivity ratio was 0.1 (Sigmar1; reference: Ki sigma-2 over Ki sigma-1).
The selectivity ratio of `CN[C@@H](C)C(=O)N[C@H]1CN(C(=O)Cc2ccccc2)CC[C@H]2CC[C@@H](C(=O)NCc3ccc(Br)cc3)N2C1=O` is reported as 962 (Baculoviral IAP repeat-containing protein 2, BIR3 domain (BIRC2, Homo sapiens, UniProt Q13490); fluorescence polarization; reference: Ki XIAP over Ki cIAP1).
The selectivity ratio of `O=c1sc2ccccc2n1CCCN1CCCCCC1` is reported as 43 (Sigmar1; reference: Ki sigma-2 over Ki sigma-1).
With `N=C(N)NCCC[C@@H]1NC(=O)[C@H](CCCNC(=N)N)NC(=O)[C@H](NC(=O)[C@H](Cc2ccccc2)NC(=O)CNC(=O)CNC(=O)[C@H](Cc2ccc(O)cc2)NCc2ccccc2)CC(=O)NCC[C@@H](C(=O)N[C@@H](CCCNC(=N)N)C(=O)N2CCC[C@H]2C(=O)N[C@@H](CCCCN)C(N)=O)NC1=O` the selectivity ratio was 8 (Oprk1; binding; reference: Ki(MOR) over Ki(KOR)).
`COC(=O)N(C)[C@@H](Cc1ccccc1)C(=O)N[C@@H](Cc1ccccc1)C(=O)N[C@@H](Cc1ccc2ccccc2c1)C(=O)N[C@@H](CCCNC(=N)N)C(=O)N[C@@H](CC(C)C)C(=O)N[C@@H](CCCNC(=N)N)C(=O)N[C@@H](CCCNC(=N)N)C(=O)N[C@H](C)C(=O)N[C@@H](CCCNC(=N)N)C(=O)N1CCC[C@H]1C(=O)N[C@@H](CCCCN)C(N)=O` gave a selectivity ratio of 2 (Oprk1; binding, [3H]diprenorphine competition; CHO cells; reference: Ki mu over Ki kappa, higher = more kappa-selective).
`COC(=O)C1CCCN1C(=O)C(Cc1ccccc1)N(C)C(=O)CC(O)C(CC(C)C)NC(=O)C(CC(C)C)N(C)C(=O)C(CC(C)C)NC(=O)C(O)C(C)C` (stereo not shown) gave a selectivity ratio of 2 fold (Cathepsin D (CTSD, Homo sapiens, UniProt P07339); reference: cathepsin E IC50 over cathepsin D IC50).
The selectivity ratio of `Cc1cc(N)nc(CC2CNCC2OCCNCC(F)(F)C2CCCCN2)c1` (stereo not shown) is reported as 24 (NOS3 (Bos taurus, UniProt P29473); hemoglobin capture; reference: Ki eNOS over Ki nNOS).
`NN[C@@H](CCCC[C@H](NN)C(=O)O)C(=O)O` has a selectivity ratio of 12 fold (4-aminobutyrate aminotransferase, mitochondrial (Rattus norvegicus, UniProt P50554); rat brain homogenate; reference: GABA-T IC50 over CBS Ki).
The selectivity ratio of `CC(=O)C1=C(C)NC(SCCCSc2nnc(Cc3ccccc3Nc3c(Cl)cccc3Cl)n2-c2ccc(Cl)c(Cl)c2)=NC1c1ccc([N+](=O)[O-])cc1` (stereo not shown) is reported as 0.1 (MAOB (Homo sapiens, UniProt P27338); fluorometric; reference: IC50 hMAO-A over IC50 hMAO-B).
For `CC(=O)NCC(=O)N(C)[C@@H](Cc1ccccc1)C(=O)N[C@@H](Cc1ccccc1)C(=O)N[C@@H](Cc1c[nH]c2ccccc12)C(=O)N[C@@H](CCCNC(=N)N)C(=O)N[C@@H](CC(C)C)C(=O)N[C@@H](CCCNC(=N)N)C(=O)N[C@@H](CCCNC(=N)N)C(=O)N[C@H](C)C(=O)N[C@@H](CCCNC(=N)N)C(=O)N1CCC[C@H]1C(=O)N[C@@H](CCCCN)C(N)=O`, the selectivity ratio was 172 (Oprk1; binding, [3H]diprenorphine competition; CHO cells; reference: Ki mu over Ki kappa, higher = more kappa-selective).
`CCC(=O)c1ccc2c(c1)sc(=O)n2CCCCCN1CCCCCC1` has a selectivity ratio of 0.7 (Sigmar1; reference: Ki sigma-2 over Ki sigma-1).
With `CC(=O)N(C)[C@@H](Cc1ccccc1)C(=O)N[C@@H](Cc1ccccc1)C(=O)N[C@@H](Cc1ccc2ccccc2c1)C(=O)N[C@@H](CCCNC(=N)N)C(=O)N[C@@H](CC(C)C)C(=O)N[C@@H](CCCNC(=N)N)C(=O)N[C@@H](CCCNC(=N)N)C(=O)N[C@H](C)C(=O)N[C@@H](CCCNC(=N)N)C(=O)N1CCC[C@H]1C(=O)N[C@@H](CCCCN)C(N)=O` the selectivity ratio was 4.5 (Oprk1; binding, [3H]diprenorphine competition; CHO cells; reference: Ki mu over Ki kappa, higher = more kappa-selective).
The selectivity ratio of `CCC(=O)c1ccc2c(c1)sc(=O)n2CCCCN1CCCCCC1` is reported as 3 (Sigmar1; reference: Ki sigma-2 over Ki sigma-1).
With `O=C(O)C=Cc1ccc(C(=C2CCCCC2)c2ccc(O)cc2)cc1` the selectivity ratio was roughly 5 fold (ESR2 (Homo sapiens, UniProt Q92731); binding, radioligand displacement; together with: [3H]estradiol; reference: ERα over ERβ).
For `C[C@]12COc3ccc(OCc4ccccc4)cc3[C@H]1CCN2`, the selectivity ratio was 36 fold (SIGMAR1 (Homo sapiens, UniProt Q99720); binding, radioligand binding; reference: sigma-1 over TMEM97 (sigma-2)).
`CC(C)C[C@H](NC(=O)[C@H](CCCNC(=N)N)NC(=O)[C@H](Cc1c[nH]c2ccccc12)NC(=O)[C@H](Cc1ccccc1)NC(=O)[C@H](Cc1ccccc1)N(C)C(=O)COc1ccccc1)C(=O)N[C@@H](CCCNC(=N)N)C(=O)N[C@@H](CCCNC(=N)N)C(=O)N[C@H](C)C(=O)N[C@@H](CCCNC(=N)N)C(=O)N1CCC[C@H]1C(=O)N[C@@H](CCCCN)C(N)=O` has a selectivity ratio of 94 (Oprk1; binding, [3H]diprenorphine competition; CHO cells; reference: Ki mu over Ki kappa, higher = more kappa-selective).
The selectivity ratio of `O=c1sc2ccccc2n1CCCCN1CCCCCC1` is reported as 31 (Sigmar1; reference: Ki sigma-2 over Ki sigma-1).
With `C[C@H](NCc1ccccc1)C(=O)NCC(=O)NCC(=O)N[C@@H](Cc1ccccc1)C(=O)N[C@@H]1CC(=O)NC[C@@H](C(=O)N[C@@H](CCCNC(=N)N)C(=O)N2CCC[C@H]2C(=O)N[C@@H](CCCCN)C(N)=O)NC(=O)[C@H](CCCNC(=N)N)NC(=O)[C@H](CCCNC(=N)N)NC1=O` the selectivity ratio was greater than 19 (Oprk1; binding; reference: Ki(MOR) over Ki(KOR)).
`N[C@@H](CCC(=O)N[C@@H](CS[Se]Cc1ccc(C(=O)Nc2cc(C(F)(F)F)c(Br)c(C(F)(F)F)c2)cc1)C(=O)NCC(=O)O)C(=O)O` has a selectivity ratio of greater than 50 fold (ACP1 (Homo sapiens, UniProt P24666); enzyme activity, inhibitor; reference: IC50 over mPTPA (M. tuberculosis)).
The selectivity ratio of `O=C(NCCN1CCC2(CC1)C(=O)NCN2Cc1cccnc1)c1cc2ccccc2[nH]1` is reported as 69 fold (Phospholipase D2; reference: PLD1 IC50 over Phospholipase D2 IC50).
The selectivity ratio of `CC(C)C[C@H](NC(=O)[C@H](CCCNC(=N)N)NC(=O)[C@H](Cc1c[nH]c2ccccc12)NC(=O)[C@H](Cc1ccccc1)NC(=O)[C@H](Cc1ccccc1)N(C)C(=O)CN)C(=O)N[C@@H](CCCNC(=N)N)C(=O)N[C@@H](CCCNC(=N)N)C(=O)N[C@H](C)C(=O)N[C@@H](CCCNC(=N)N)C(=O)N1CCC[C@H]1C(=O)N[C@@H](CCCCN)C(N)=O` is reported as 33 (Oprk1; binding, [3H]diprenorphine competition; CHO cells; reference: Ki mu over Ki kappa, higher = more kappa-selective).
With `O=c1sc2ccccc2n1CCCCCCN1CCCCCC1` the selectivity ratio was 0.3 (Sigmar1; reference: Ki sigma-2 over Ki sigma-1).
The selectivity ratio of `O=C(NCCN1CCC2(CC1)C(=O)NCN2Cc1ccncc1)c1ccc2ccccc2c1` is reported as 28 fold (Phospholipase D2; reference: PLD1 IC50 over Phospholipase D2 IC50).
`CCCC(=O)c1ccc2c(c1)sc(=O)n2CCCCCCN1CCCCCC1` has a selectivity ratio of 0.2 (Sigmar1; reference: Ki sigma-2 over Ki sigma-1).
For `NC[C@@H]1[C@@H](O)[C@@H](O)[C@H]2[C@H](O)CCCN21`, the selectivity ratio was 3.7 (Alpha-mannosidase 2 (Homo sapiens, UniProt Q16706); inhibitor; together with: fluorogenic mannoside substrate; reference: lysosomal over Golgi mannosidase Ki).

Repeated from above:
With `CCC(=O)c1ccc2c(c1)sc(=O)n2CCCCCCN1CCCCCC1` the selectivity ratio was 0.1 (Sigmar1; reference: Ki sigma-2 over Ki sigma-1).
